Assay results of several laboratories.
“And” joins repeats or separate records; there may be more than shown. ± marks the error that the study gave.
UniProt Q64663, sequence (whole entry, unmodified, looked up): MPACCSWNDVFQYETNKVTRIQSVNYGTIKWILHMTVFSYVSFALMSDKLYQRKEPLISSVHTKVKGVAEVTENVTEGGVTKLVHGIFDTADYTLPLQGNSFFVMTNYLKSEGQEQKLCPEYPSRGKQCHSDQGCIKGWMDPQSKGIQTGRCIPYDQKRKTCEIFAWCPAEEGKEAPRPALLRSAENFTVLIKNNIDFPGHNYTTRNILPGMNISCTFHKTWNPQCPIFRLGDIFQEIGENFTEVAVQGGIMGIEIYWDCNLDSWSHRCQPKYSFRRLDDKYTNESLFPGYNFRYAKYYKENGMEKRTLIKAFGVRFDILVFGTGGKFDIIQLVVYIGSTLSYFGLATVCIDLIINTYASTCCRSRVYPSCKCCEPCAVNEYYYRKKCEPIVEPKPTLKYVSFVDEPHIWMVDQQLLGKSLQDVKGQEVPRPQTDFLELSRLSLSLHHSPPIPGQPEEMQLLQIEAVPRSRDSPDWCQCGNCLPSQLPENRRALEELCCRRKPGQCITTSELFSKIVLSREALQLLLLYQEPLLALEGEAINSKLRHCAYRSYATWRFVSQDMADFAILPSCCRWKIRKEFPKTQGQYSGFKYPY
UniProt P51149, sequence (whole entry, looked up): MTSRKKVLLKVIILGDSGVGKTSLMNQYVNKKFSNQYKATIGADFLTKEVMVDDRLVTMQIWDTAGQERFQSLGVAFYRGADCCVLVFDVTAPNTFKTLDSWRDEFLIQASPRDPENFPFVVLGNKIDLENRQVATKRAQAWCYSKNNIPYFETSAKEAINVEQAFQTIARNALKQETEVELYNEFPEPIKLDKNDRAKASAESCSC
UniProt P49327, sequence (whole entry, looked up): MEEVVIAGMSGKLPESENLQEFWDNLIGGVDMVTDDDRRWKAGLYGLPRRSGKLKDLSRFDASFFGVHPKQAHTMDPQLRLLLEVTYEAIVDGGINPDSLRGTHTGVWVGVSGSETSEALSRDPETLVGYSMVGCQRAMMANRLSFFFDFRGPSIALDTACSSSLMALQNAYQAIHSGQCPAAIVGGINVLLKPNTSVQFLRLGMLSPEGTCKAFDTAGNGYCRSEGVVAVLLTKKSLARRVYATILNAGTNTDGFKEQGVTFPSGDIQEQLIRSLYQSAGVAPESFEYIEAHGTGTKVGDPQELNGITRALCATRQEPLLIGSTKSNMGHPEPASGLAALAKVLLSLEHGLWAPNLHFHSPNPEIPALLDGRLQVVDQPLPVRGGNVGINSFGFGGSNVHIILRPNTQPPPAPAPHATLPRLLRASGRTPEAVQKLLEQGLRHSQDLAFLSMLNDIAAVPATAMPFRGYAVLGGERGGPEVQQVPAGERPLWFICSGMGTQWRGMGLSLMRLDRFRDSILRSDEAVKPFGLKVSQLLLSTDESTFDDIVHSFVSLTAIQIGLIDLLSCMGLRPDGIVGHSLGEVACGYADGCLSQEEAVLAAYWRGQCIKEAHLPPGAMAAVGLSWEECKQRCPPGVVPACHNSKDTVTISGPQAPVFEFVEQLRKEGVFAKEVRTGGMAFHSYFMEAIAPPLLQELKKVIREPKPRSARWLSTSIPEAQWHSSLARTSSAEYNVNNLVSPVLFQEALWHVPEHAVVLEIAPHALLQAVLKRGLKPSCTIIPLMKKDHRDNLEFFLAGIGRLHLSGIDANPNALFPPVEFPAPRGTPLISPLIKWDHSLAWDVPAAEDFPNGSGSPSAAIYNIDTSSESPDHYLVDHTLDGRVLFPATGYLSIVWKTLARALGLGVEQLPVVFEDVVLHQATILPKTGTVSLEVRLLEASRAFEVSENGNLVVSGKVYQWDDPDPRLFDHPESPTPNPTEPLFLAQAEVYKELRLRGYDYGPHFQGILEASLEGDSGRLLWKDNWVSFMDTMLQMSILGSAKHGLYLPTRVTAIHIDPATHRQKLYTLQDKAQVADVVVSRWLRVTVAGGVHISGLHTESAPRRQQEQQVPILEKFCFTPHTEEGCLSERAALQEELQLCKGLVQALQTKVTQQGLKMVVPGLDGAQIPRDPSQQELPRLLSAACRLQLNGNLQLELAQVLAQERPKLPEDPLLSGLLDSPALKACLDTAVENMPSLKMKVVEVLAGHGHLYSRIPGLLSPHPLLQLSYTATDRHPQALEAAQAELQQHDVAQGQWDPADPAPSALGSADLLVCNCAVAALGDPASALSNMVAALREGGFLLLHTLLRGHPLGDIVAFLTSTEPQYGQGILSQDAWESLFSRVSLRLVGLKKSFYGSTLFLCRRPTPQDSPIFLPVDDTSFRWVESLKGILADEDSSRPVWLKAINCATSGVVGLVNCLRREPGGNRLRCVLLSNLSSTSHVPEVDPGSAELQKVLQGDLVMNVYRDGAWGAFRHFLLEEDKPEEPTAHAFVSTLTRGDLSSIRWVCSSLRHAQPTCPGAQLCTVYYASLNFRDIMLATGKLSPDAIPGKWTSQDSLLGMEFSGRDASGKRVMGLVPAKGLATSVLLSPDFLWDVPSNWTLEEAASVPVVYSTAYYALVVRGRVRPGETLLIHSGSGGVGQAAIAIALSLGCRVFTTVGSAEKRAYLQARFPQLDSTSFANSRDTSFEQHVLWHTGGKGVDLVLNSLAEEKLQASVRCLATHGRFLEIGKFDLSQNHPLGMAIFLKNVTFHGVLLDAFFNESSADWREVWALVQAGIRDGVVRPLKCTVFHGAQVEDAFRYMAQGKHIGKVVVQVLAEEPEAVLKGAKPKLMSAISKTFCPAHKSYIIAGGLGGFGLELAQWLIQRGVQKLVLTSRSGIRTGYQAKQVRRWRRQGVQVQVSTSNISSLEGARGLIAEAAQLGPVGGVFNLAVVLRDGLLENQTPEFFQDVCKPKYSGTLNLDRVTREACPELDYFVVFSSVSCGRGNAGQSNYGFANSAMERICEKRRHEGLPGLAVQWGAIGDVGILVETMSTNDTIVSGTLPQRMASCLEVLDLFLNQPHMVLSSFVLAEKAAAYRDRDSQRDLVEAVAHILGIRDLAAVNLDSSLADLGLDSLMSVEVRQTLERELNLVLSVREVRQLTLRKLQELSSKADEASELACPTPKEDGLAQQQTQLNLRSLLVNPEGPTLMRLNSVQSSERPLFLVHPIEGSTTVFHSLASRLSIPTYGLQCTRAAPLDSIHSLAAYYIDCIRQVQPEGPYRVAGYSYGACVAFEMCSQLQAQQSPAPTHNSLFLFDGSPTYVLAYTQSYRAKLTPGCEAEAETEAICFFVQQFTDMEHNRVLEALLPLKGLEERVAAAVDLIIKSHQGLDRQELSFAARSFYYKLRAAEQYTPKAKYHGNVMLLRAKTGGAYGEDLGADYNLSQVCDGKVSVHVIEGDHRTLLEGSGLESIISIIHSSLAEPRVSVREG
UniProt P09497, sequence (whole entry, looked up): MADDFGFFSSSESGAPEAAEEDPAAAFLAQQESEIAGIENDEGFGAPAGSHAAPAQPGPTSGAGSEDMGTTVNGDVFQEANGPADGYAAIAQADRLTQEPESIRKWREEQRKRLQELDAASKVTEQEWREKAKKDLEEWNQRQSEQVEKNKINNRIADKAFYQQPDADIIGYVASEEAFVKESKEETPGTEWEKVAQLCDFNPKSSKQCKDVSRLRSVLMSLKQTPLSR
UniProt P62937, sequence (whole entry, looked up): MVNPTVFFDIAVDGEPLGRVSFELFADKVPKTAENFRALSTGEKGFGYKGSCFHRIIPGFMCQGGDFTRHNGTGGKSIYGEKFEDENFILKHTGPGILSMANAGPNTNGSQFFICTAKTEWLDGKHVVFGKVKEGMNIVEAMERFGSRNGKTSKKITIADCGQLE
UniProt Q8IUD2, sequence (whole entry, looked up): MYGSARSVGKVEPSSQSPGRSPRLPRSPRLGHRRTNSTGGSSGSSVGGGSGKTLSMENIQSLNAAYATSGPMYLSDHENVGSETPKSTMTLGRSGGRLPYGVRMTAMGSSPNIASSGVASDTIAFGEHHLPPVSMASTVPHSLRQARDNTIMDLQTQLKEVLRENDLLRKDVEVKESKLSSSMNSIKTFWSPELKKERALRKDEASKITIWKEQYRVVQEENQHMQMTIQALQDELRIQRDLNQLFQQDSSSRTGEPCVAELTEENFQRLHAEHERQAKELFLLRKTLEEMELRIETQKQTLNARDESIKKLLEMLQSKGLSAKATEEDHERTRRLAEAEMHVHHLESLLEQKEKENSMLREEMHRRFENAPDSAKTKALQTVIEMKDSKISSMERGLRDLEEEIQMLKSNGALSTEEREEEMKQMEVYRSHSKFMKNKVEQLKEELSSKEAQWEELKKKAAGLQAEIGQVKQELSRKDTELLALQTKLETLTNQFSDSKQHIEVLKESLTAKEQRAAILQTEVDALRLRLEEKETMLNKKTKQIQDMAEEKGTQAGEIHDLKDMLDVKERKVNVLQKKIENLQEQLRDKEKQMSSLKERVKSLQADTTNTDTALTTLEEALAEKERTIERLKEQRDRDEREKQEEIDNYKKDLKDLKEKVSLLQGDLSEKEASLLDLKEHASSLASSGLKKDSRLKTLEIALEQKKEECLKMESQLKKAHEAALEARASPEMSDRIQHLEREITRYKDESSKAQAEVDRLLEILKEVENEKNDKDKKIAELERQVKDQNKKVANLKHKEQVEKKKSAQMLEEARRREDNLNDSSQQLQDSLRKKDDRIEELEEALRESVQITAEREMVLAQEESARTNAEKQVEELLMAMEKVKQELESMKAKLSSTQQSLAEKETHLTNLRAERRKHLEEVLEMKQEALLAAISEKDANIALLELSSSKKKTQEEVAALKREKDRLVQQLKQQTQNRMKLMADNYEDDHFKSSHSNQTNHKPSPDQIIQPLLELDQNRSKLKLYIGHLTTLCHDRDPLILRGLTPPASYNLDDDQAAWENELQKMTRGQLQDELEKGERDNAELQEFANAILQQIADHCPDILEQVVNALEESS
UniProt P84090, sequence (whole entry, unmodified, looked up): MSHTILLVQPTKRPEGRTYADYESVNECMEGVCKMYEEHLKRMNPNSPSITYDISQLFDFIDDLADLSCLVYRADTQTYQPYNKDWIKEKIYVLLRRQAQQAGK
UniProt Q9NPE3, sequence (whole entry, looked up): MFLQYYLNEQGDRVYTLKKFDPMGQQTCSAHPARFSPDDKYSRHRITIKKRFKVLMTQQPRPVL

Molecule | tested on | test | system | conditions | scale | endpoint | value
VIM (Homo sapiens, UniProt P08670) | PRPH (Homo sapiens, UniProt P41219) | cross-linking MS | cells | together with: BDP-NHP | – | cross-linked residues | K373 to K290
BzATP | P2X purinoceptor 7 (P2rx7, Rattus norvegicus, UniProt Q64663, I214A/Q143A) | ion current, agonist, two-electrode voltage clamp | Xenopus oocytes | 300 µM | – | normalized current | 0.93 and 0.96 and 0.99
DIAPH2 (Homo sapiens, UniProt O60879) | FGB (Homo sapiens, UniProt P02675) | cross-linking MS | – | together with: DSSO | – | cross-linked residues | K502 to K83
Peginesatide | UT7/EPO | tyrosine phosphorylation, LC-MS/MS phosphoproteomics, trypsin, refers to: JAK2 tyrosine 570 | – | 10 nM, 15 min, together with: 10 U/mL EPO | reference: vehicle | phosphorylation level | 6 fold
Hemoglobin subunit alpha (Homo sapiens, UniProt P69905) | KRT76 (Homo sapiens, UniProt Q01546) | cross-linking MS | – | together with: DSSO or DMTMM | – | cross-linked residues | D48 to K398
SMC2 (Homo sapiens, UniProt O95347) | SMC4 (Homo sapiens, UniProt Q9NTJ3) | cross-linking MS | cells | together with: BDP-NHP | – | cross-linked residues | K677 to K598
FNA / CGLSGLGVA-NH2 ([18F]FNA-labelled, C-amide) | – | ex vivo gamma counting | peptide, glioblastoma mouse model, urine | 60 min post injection, together with: 500-fold excess CooP blocking | – | tissue uptake | 437 %ID/g
RFC1 (Homo sapiens, UniProt P35251) | Histone H4 (Homo sapiens, UniProt P62805) | cross-linking MS | – | together with: DSSO | – | cross-linked residues | K845 to K78
ANK2 (Homo sapiens, UniProt Q01484) | SEMA5B (Homo sapiens, UniProt Q9P283) | cross-linking MS | – | together with: DSSO or DMTMM | – | cross-linked residues | K3148 to D827
HSPD1 (Homo sapiens, UniProt P10809) | ERC1 (Homo sapiens, UniProt Q8IUD2) | cross-linking MS | cells | together with: iqPIR | – | cross-linked residues | K473 to K797
PRTARHAPAVRKFSPDLKLLKDVKISVSFTE (DGCR8(96-126), SUMO-tagged) | Enhancer of rudimentary homolog (Homo sapiens, UniProt P84090, F60A) | DGCR8 peptide binding, ITC | peptide | 293 K | – | ΔH | -12.6 ± 1.87 kJ/mol
FGB (Homo sapiens, UniProt P02675) | ASCC3 (Homo sapiens, UniProt Q8N3C0) | cross-linking MS | – | together with: DSSO | – | cross-linked residues | K83 to K2109
11-deoxycorticosterone | CYP11B2 (human) | substrate binding, stopped-flow kinetic modelling | – | 4-state branched induced-fit model, together with: equimolar adrenodoxin | – | rate constant k-3 | 0.569 min⁻¹
insulin | – | LC-MS/MS | prepared human sample | two freeze-thaw cycles, low pool | – | concentration | 0.36 ng/mL
ROGDI (Homo sapiens, UniProt Q9GZN7) | WDR7 (Homo sapiens, UniProt Q9Y4E6) | cross-linking MS | purified complex | together with: DSSO | – | cross-linked residues | K137 to K321
GAPDH (Homo sapiens, UniProt P04406) | DHX38 (Homo sapiens, UniProt Q92620) | cross-linking MS | cells | together with: iqPIR | – | cross-linked residues | K219 to K522
Polymyxin B | – | untargeted LC-MS metabolomics, refers to: L-pipecolate | Sprague-Dawley rat, right cerebral cortex | intracerebroventricular, 0.75 mg/kg, 1 h | reference: NaCl control | log2 fold change | -1.9
human ME2 D102S | – | enzyme activity, activator, NADH absorbance | recombinant enzyme | range over 0 to 5 mM, pH 7.4 | reference: wild type | activation fold | 0.9
PDHX (Homo sapiens, UniProt O00330) | DLAT (Homo sapiens, UniProt P10515) | cross-linking MS | cells | together with: BDP-NHP | – | cross-linked residues | K488 to K473
caspofungin | – | – | adult ICU patients, mITT, serum | dose not given, EOT | – | bilirubin | 18.6 µmol/L
TCP1 (Homo sapiens, UniProt P17987) | CCT2 (Homo sapiens, UniProt P78371) | cross-linking MS | – | together with: DSSO | – | cross-linked residues | K126 to K46

Molecule | tested on | test | system | conditions | scale | endpoint | value
FASN (Homo sapiens, UniProt P49327) | CPLX3 (Homo sapiens, UniProt Q8WVH0) | cross-linking MS | cells | together with: iqPIR | – | cross-linked residues | K1704 to K14
KDM5A (Homo sapiens, UniProt P29375) | MTNAP1 (Homo sapiens, UniProt Q9BSJ5) | cross-linking MS | – | together with: DSSO | – | cross-linked residues | K960 to K110
Teicoplanin | – | ultrafiltration | – | high QC, weight corrected | – | ultrafiltrate solubility loss | 0.36%
KRT1 (Homo sapiens, UniProt P04264) | Gamma-aminobutyric acid receptor-associated protein-like 2 (Homo sapiens, UniProt P60520) | cross-linking MS | – | together with: DSSO or DMTMM | – | cross-linked residues | K472 to E96
RAB7A (Homo sapiens, UniProt P51149) | VPS29 (Homo sapiens, UniProt Q9UBQ0) | cross-linking MS | cells | together with: iqPIR | – | cross-linked residues | K137 to K30
Neuropeptide Y | – | RP-HPLC | HALO RP-amide column | 25 µM, formic acid/acetonitrile, 25 min gradient | – | retention time | 8.41 min
BMI1 (Homo sapiens, UniProt P35226) | RNF2 (Homo sapiens, UniProt Q99496) | cross-linking MS | – | together with: BS3 | – | cross-linked residues | K232 to K133
TCP1 (Homo sapiens, UniProt P17987) | CCT4 (Homo sapiens, UniProt P50991) | cross-linking MS | cells | together with: iqPIR | – | cross-linked residues | K515 to K55
SLC4A1 (Homo sapiens, UniProt P02730) | PGM2 (Homo sapiens, UniProt Q96G03) | cross-linking MS | – | together with: DSSO or DMTMM | – | cross-linked residues | D25 to K91
CLTB (Homo sapiens, UniProt P09497) | CLTC (Homo sapiens, UniProt Q00610) | cross-linking MS | cells | together with: iqPIR | – | cross-linked residues | K133 to K1441
DARS1 (Homo sapiens, UniProt P14868) | AIMP2 (Homo sapiens, UniProt Q13155) | cross-linking MS | cells | together with: BDP-NHP | – | cross-linked residues | K330 to K159
SERPINF2 (Homo sapiens, UniProt P08697) | GALNT18 (Homo sapiens, UniProt Q6P9A2) | cross-linking MS | – | together with: DSSO | – | cross-linked residues | K170 to K211
colistin | Pseudomonas aeruginosa | broth microdilution | clinical isolate RKI-No_130/15 | – | – | MIC | 1 mg/L
CD109 (Homo sapiens, UniProt Q6YHK3) | PRPF31 (Homo sapiens, UniProt Q8WWY3) | cross-linking MS | cells | together with: BDP-NHP | – | cross-linked residues | K560 to K471
ALB (Homo sapiens, UniProt P02768) | LDHAL6A (Homo sapiens, UniProt Q6ZMR3) | cross-linking MS | – | together with: DSSO | – | cross-linked residues | K223 to K318
SPTBN1 (Homo sapiens, UniProt Q01082) | SPTAN1 (Homo sapiens, UniProt Q13813) | cross-linking MS | cells | together with: BDP-NHP | – | cross-linked residues | K1815 to K613
YWHAE (Homo sapiens, UniProt P62258) | PPIA (Homo sapiens, UniProt P62937) | cross-linking MS | cells | together with: iqPIR | – | cross-linked residues | K73 to K76
GAPDH (Homo sapiens, UniProt P04406) | TOP1 (Homo sapiens, UniProt P11387) | cross-linking MS | cells | together with: BDP-NHP | – | cross-linked residues | K194 to K164
FGA (Homo sapiens, UniProt P02671) | BOD1L1 (Homo sapiens, UniProt Q8NFC6) | cross-linking MS | – | together with: DSSO | – | cross-linked residues | K157 to K852
PHGDH (Homo sapiens, UniProt O43175) | CYCS (Homo sapiens, UniProt P99999) | cross-linking MS | cells | together with: BDP-NHP | – | cross-linked residues | K289 to K28
DKC1 (Homo sapiens, UniProt O60832) | NOP10 (Homo sapiens, UniProt Q9NPE3) | cross-linking MS | cells | together with: iqPIR | – | cross-linked residues | K80 to K53

Some of these lines once more:
Molecule | tested on | test | system | conditions | scale | endpoint | value
insulin | – | LC-MS/MS | prepared human sample | two freeze-thaw cycles, low pool | – | concentration | 0.36 ng/mL
colistin | Pseudomonas aeruginosa | broth microdilution | clinical isolate RKI-No_130/15 | – | – | MIC | 1 mg/L
ANK2 (Homo sapiens, UniProt Q01484) | SEMA5B (Homo sapiens, UniProt Q9P283) | cross-linking MS | – | together with: DSSO or DMTMM | – | cross-linked residues | K3148 to D827
YWHAE (Homo sapiens, UniProt P62258) | PPIA (Homo sapiens, UniProt P62937) | cross-linking MS | cells | together with: iqPIR | – | cross-linked residues | K73 to K76
CD109 (Homo sapiens, UniProt Q6YHK3) | PRPF31 (Homo sapiens, UniProt Q8WWY3) | cross-linking MS | cells | together with: BDP-NHP | – | cross-linked residues | K560 to K471
Polymyxin B | – | untargeted LC-MS metabolomics, refers to: L-pipecolate | Sprague-Dawley rat, right cerebral cortex | intracerebroventricular, 0.75 mg/kg, 1 h | reference: NaCl control | log2 fold change | -1.9
